Published values gathered from unrelated publications.
Each line is one published result; not all experiments were run side by side. Several values in a cell are separate wells, animals, samples, runs or records. Numbers after ± are the reported error.

COC1OC(C)C(OC2OC(C)C(OS(=O)(=O)O)C(OC3OC(C)C(OC4OC(C)C(OS(=O)(=O)O)C(OC5OC(C)C(OC6OC(C)C(OS(=O)(=O)O)C(OC7OC(C)C(OS(=O)(=O)O)C(OS(=O)(=O)O)C7OS(=O)(=O)O)C6OS(=O)(=O)O)C(OS(=O)(=O)O)C5OS(=O)(=O)O)C4OS(=O)(=O)O)C(OS(=O)(=O)O)C3OS(=O)(=O)O)C2OS(=O)(=O)O)C(OS(=O)(=O)O)C1OS(=O)(=O)O (stereo not shown)
viability (NIH 3T3; CCK-8; concentration not given, 24 h, medium concentration; reference: untreated cells): 89.5% and 105% and 100%

CC(=O)OC[C@H]1O[C@@H]([Se]C(C)=O)[C@H](OC(C)=O)[C@@H](OC(C)=O)[C@@H]1OC(C)=O
viability (THP-1 macrophages (PMA-differentiated); WST-1; 50 µM, 24 h): 63.8 ± 16.9%

O=CCNCCOn1c(=O)n(OCCNCCO)c(=O)n(OCCNCCOn2c(=O)n(OCCNCCO)c(=O)n(OCCNCCO)c2=O)c1=O
viability (HUVEC; cell growth or viability, MTT; 12.5 µg/mL, 72 h): 24.3%

CCOC(=O)C1CC(CC)C2C=CC3CCN(C(=O)C4CCC5C=CC6(CCCN6C(=O)C(Cc6ccccc6Cl)NC(C)=O)C(=O)N54)C3C(=O)N12 (stereo not shown)
viability (MDA-MB-231; 180 µM, 24 h): not toxic

COc1ccc(Cn2cc(CCO[C@@H]3O[C@H]4[C@H](OC[C@H]4O)[C@H]3O)nn2)cc1
viability (Huh-7; cytotoxicity, CellTiter-Glo; up to 30 µM, 72 h): not toxic

COC1OC(C)C(OS(=O)(=O)O)C(OC2OC(C)C(OS(=O)(=O)O)C(OC3OC(C)C(OS(=O)(=O)O)C(OC4OC(C)C(OS(=O)(=O)O)C(OC5OC(C)C(OS(=O)(=O)O)C(OC6OC(C)C(OS(=O)(=O)O)C(OC7OC(C)C(OS(=O)(=O)O)C(OC8OC(C)C(OS(=O)(=O)O)C(OS(=O)(=O)O)C8OS(=O)(=O)O)C7OS(=O)(=O)O)C6OS(=O)(=O)O)C5OS(=O)(=O)O)C4OS(=O)(=O)O)C3OS(=O)(=O)O)C2OS(=O)(=O)O)C1OS(=O)(=O)O (stereo not shown)
viability (NIH 3T3; CCK-8; concentration not given, 24 h, medium concentration; reference: untreated cells): 105% and 115% and 112%

CC(=O)OC[C@H]1O[C@@H]([Se]C(=O)c2ccc([N+](=O)[O-])cc2)[C@H](OC(C)=O)[C@@H](OC(C)=O)[C@@H]1OC(C)=O
viability (THP-1 macrophages (PMA-differentiated); WST-1; 10 µM, 24 h): 83.8 ± 18.8%

COC1OC(C)C(OC2OC(C)C(O)C(OC3OC(C)C(OC4OC(C)C(O)C(OC5OC(C)C(OC6OC(C)C(O)C(OC7OC(C)C(OC8OC(C)C(O)C(OS(=O)(=O)O)C8OS(=O)(=O)O)C(OS(=O)(=O)O)C7OS(=O)(=O)O)C6OS(=O)(=O)O)C(OS(=O)(=O)O)C5OS(=O)(=O)O)C4OS(=O)(=O)O)C(OS(=O)(=O)O)C3OS(=O)(=O)O)C2OS(=O)(=O)O)C(OS(=O)(=O)O)C1OS(=O)(=O)O (stereo not shown)
viability (NIH 3T3; CCK-8; concentration not given, 24 h, high concentration; reference: untreated cells): 90.8% and 91.7% and 93.9%

COc1cc(Oc2c(OC)cc(C)c(Br)c2O)c(C(=O)O)c(C)c1O
viability (A549; MTT; 10 or 50 µM, 48 h): 98.8 ± 4.4%

COc1ccc(Cn2cc(CO[C@@H]3O[C@H]4[C@H](OC[C@H]4O)[C@H]3N=[N+]=[N-])nn2)cc1
viability (HPAF-II; cytotoxicity, CellTiter-Glo; up to 30 µM, 72 h): not toxic

CCc1c(-c2ccc3[nH]ncc3c2)cnc(N)c1-c1ccc(O)cc1
viability (CHP-212; SRB; 0.1953 µM): 102% and 100%

COc1cc(N2CCN(C(=O)CN)CC2)ccc1Nc1ncc(Cl)c(Nc2ccccc2P(C)(C)=O)n1
viability (NCI-H3122; cell growth or viability, CCK-8; 50 nM, 48 h): 65% and 59%

c1cc2nc(c1)-c1cccc(n1)CCCc1ccc(cc1)OCCCCCCOc1ccc(cc1)CCC2
viability (Caco-2; cell growth or viability, MTT; 12.5 µM, 48 h): 91.9%

CC(=O)OC1CCC2(OC1)OC(=CC#CC#CCO)C(OC(=O)CC(C)C)C2O (stereo not shown)
viability (RAW264.7; MTT; DMEM with 10% FBS; 50 µM, 18 h, added: LPS 1 µg/mL; reference: DMSO): 96.8 ± 9.1%

Cc1ccc(-n2cc(CSc3nc4ccccc4n3Cc3cn(-c4ccc(C)cc4)nn3)nn2)cc1
viability (HEK293; MTT; 250 ppm): 9.07%

COC1OC(C)C(OS(=O)(=O)O)C(OC2OC(C)C(OS(=O)(=O)O)C(OC3OC(C)C(OS(=O)(=O)O)C(OC4OC(C)C(OS(=O)(=O)O)C(OC5OC(C)C(OS(=O)(=O)O)C(OC6OC(C)C(OS(=O)(=O)O)C(OC7OC(C)C(OS(=O)(=O)O)C(OC8OC(C)C(OS(=O)(=O)O)C(OC9OC(C)C(OS(=O)(=O)O)C(OC%10OC(C)C(OS(=O)(=O)O)C(OS(=O)(=O)O)C%10OS(=O)(=O)O)C9OS(=O)(=O)O)C8OS(=O)(=O)O)C7OS(=O)(=O)O)C6OS(=O)(=O)O)C5OS(=O)(=O)O)C4OS(=O)(=O)O)C3OS(=O)(=O)O)C2OS(=O)(=O)O)C1OS(=O)(=O)O (stereo not shown)
viability (NIH 3T3; CCK-8; concentration not given, 24 h, high concentration; reference: untreated cells): 102% and 107%

O=C(OC[C@@]1(O)C(=O)C=C[C@H]2[C@@H]1[C@H]1C=C[C@@H]2C(=O)[C@]1(O)COC(=O)c1ccccc1)c1ccccc1
viability (A549; cell growth or viability, MTT; 100 µg/mL): 73.3%

CC(C)=CCc1c(O)c(CC=C(C)C)c2occ(-c3ccc(O)c(O)c3)c(=O)c2c1O
viability (A549; cell growth or viability, MTT; 100 µg/mL): 114%

CC(=O)OC[C@H]1O[C@@H]([Se]SC[C@H]2O[C@@H]3OC(C)(C)O[C@@H]3[C@H]3OC(C)(C)O[C@H]32)[C@H](OC(C)=O)[C@@H](OC(C)=O)[C@@H]1OC(C)=O
viability (THP-1 macrophages (PMA-differentiated); WST-1; 10 µM, 24 h): 45.7 ± 0.7%

CN1CCCNC(=O)c2cccc(c2)C(=O)NCCCN(C)CCCNc2cccc3c2C(=O)c2cccc(c2C3=O)NCCC1
viability (NHEK; CCK-8; 0.015 µM, 48 h; reference: untreated): 92.1%

CC(=O)OC[C@H]1O[C@@H]([Se]c2ccc([N+](=O)[O-])cc2[N+](=O)[O-])[C@H](OC(C)=O)[C@@H](OC(C)=O)[C@@H]1OC(C)=O
viability (THP-1 macrophages (PMA-differentiated); WST-1; 10 µM, 24 h): 115 ± 1.8%

CC[C@H](C)[C@@H](C(=O)N[C@@H](Cc1ccc(O)cc1)C(=O)N1CCC[C@H]1C(=O)N[C@@H](Cc1ccccc1)C(=O)O)n1cc(C(Cc2ccc(O)cc2)NC(=O)[C@@H](NC(=O)[C@H](CCCNC(=N)N)NC(=O)[C@@H](N)CC(=O)O)C(C)C)nn1 (stereo partly shown)
viability (Caco-2; cell growth or viability, MTT; 50 µM, 48 h): 86.9%

A few entries again:
CCc1c(-c2ccc3[nH]ncc3c2)cnc(N)c1-c1ccc(O)cc1
viability (CHP-212; SRB; 0.1953 µM): 102% and 100%

COc1cc(N2CCN(C(=O)CN)CC2)ccc1Nc1ncc(Cl)c(Nc2ccccc2P(C)(C)=O)n1
viability (NCI-H3122; cell growth or viability, CCK-8; 50 nM, 48 h): 65% and 59%
